Measurements from different studies.
Parts stem from different laboratories: compare values within a part only.

Set 1 — technique: universal PBM; form: double-stranded DNA, one strand shown; sample: in vitro; concentration: not given; direction: higher = stronger binding
Target: Sal-like protein 4, full length isoform B (SALL4, Homo sapiens, UniProt Q9UJQ4-2, residues 1-616)
Setting: 8-mer, flanks averaged, mean of replicates
Strand	E-score
GACAGCCC	-0.253
CCTCGGTA	-0.224
ACCATTGG	-0.132
GGTGGCGA	-0.131
TTAGCGAA	0.0626
CCTGCCTA	-0.0528
AGGTATCC	-0.0272
ATCCAATG	-0.00135
CCCCCTTA	-0.101
ACTGGGTA	-0.0543
GAGGGTCC	-0.328

Set 2 — technique: protein binding microarray; form: double-stranded DNA, one strand shown; sample: in vitro; concentration: not given; baseline: not given; direction: higher = stronger binding
Target: Histone acetyltransferase KAT6A, winged helix 1, GST fusion (KAT6A, Homo sapiens, UniProt Q92794, residues 1-85)
Setting: 8-mer, flanks averaged, mean of 2 arrays, mostly near background
Residues (chain): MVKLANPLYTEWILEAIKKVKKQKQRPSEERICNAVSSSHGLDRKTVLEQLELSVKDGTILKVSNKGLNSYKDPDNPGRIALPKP
Strand	E-score
CACAGCGC	0.284
TCTACCCA	-0.0271
TCCCCGAA	0.0413
GCCTTAGA	0.0164
AGGCTGAA	-0.214
AACTGCCT	-0.217
CTCATCCC	-0.078
AAAGCTCG	-0.092
CGCCGGCA	0.451
AAGATAGA	-0.0949
AATGTTCC	-0.0501
TAGTATGA	-0.0897
GCCCAGAA	-0.173
ACGGCGTC	0.409
AATCGTAG	-0.194

Set 3 — technique: protein-binding microarray; form: double-stranded DNA, one strand shown; sample: in vitro; concentration: 2200 nM top; setting: 60-bp whole probe; together with: salmon DNA 0.4 mg/ml; baseline: random background probes; direction: higher = stronger binding; all sequences stand within: GCCTAGCAC … GTCTTGATTCGCTTGACGCTGCTG
Target: Interferon regulatory factor 7, full length, phosphomimetic (IRF7, Homo sapiens, UniProt Q92985, residues 1-503, S471D/S472D/S475D/S476D/S477D/S483D/S484D/S487D)
Chain of UniProt Q92985 (whole entry, unmodified, looked up): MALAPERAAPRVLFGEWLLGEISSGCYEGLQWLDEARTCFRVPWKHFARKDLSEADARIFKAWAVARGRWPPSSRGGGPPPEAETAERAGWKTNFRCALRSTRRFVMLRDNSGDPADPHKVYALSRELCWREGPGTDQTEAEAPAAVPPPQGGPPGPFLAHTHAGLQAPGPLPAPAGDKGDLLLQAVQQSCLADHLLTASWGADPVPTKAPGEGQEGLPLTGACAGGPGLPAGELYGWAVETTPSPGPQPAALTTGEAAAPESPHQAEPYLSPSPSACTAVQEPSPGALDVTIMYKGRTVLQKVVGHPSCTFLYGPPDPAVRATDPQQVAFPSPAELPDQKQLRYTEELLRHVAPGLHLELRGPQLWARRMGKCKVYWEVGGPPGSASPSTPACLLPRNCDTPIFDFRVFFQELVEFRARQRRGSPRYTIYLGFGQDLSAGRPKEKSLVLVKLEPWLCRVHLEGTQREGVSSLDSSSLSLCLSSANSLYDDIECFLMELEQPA
Strand	fitted relative affinity [z-score]
CCTCCCCTTGCTTTCCAATTGTGCTAG	1.8
AAGTGTTTCTCAACCAGTTTGTGCTAG	0.817
TTGGGACTGGGGTTTCGGTTAGTGCTA	2.25
TTAGGACTGCTTCTCTTTTAGTGCTAG	0.5
TTCGAACTGAGTATCGATTAGTGCTAG	0.241
TTAGAACTGAGTTCCGATTAGTGCTAG	0.00256
GACGGTATCGCCTATCGGGACGTGCTA	-0.0443
TCAAGCCTCCATTTTTAACTGTGCTAG	0.735
GACAGACTGCTTATCCTGACGTGCTAG	0.53
GACGAACTGGAGTATCGAGACGTGCTA	-0.455
TTAGGTTCCGGGACTGGGTTAGTGCTA	-0.284
TTAGGTTTCCTCCTGCTTTAGTGCTAG	1.94

Further values, each from its own experiment
Substance	target	assay	test system	setting	scale	measurement	value
PhoQ, residues 284 288 289 292 302 303 TNSAEL	PhoP, residues 12 14 15 18 19 LFHKL (Escherichia coli, UniProt P23836)	Sort-seq, item: YFP reporter	E. coli	PhoQ-PhoP variant library, together with: 10 µM Mg2+	baseline: high Mg2+ state, higher = stronger signaling	fold induction	4.49

Repeated from above (set 1):
Strand	E-score
CCTGCCTA	-0.0528
AGGTATCC	-0.0272
ATCCAATG	-0.00135
CCCCCTTA	-0.101
